Results of several laboratories.
Protocols differ between the studies behind these lines. Several values in a cell are separate wells, animals, samples, runs or records. ± gives the spread as reported.

`Cc1ncc2n1-c1ccc(Cl)cc1C(c1ccccc1F)=NC2O` (stereo not drawn) — result for plasma concentration: “not detected” (wild-type mice, plasma; 500 mg/kg, 14 days, with: midazolam 0.3 mg/kg iv).
With `CCCCCc1cc(O)c(C/C=C(\C)CCC=C(C)C)c(O)c1` the plasma concentration was 1.1 ± 0.1 µg/mL (LC-MS/MS; Scn1a+/− mice, both sexes, plasma; intraperitoneal, 30 mg/kg, after hyperthermia protocol).
The plasma concentration of `CN(C)C1(CNC(=O)c2ccc3c(c2)CCN3C(=O)c2ccccc2)CCOCC1` is reported as 0.133 µg/mL (male C57BL/6 mice; intraperitoneal, 50 mg/kg, 120 min).
`CCCc1cc(O)c(C/C=C(\C)CCC=C(C)C)c(O)c1` gave a plasma concentration of 1.5 ± 0.4 µg/mL (LC-MS/MS; Scn1a+/− mice, plasma; intraperitoneal, 30 mg/kg, after hyperthermia protocol).
`O=C1c2c(O)c(=O)ccn2N([C@@H]2c3ccccc3SCc3c2ccc(F)c3F)[C@@H]2COCCN12` gave a plasma concentration of 0.0252 µg/mL (BALB/c mice, plasma; oral, 50 mg/kg baloxavir marboxil, 12 h).
`[2H]C([2H])([2H])C1(C([2H])([2H])[2H])NC(=O)N(c2ccc(F)c(C(F)(F)F)c2)C1=O` has a plasma concentration of 38.8 ± 1.43 µg/mL (male Swiss outbred mice, plasma; oral, 100 mg/kg, 48 h).
For `CCN(CC)CCCC[C@H](NC(=O)[C@H](CC(C)C)NC(=O)[C@H](C)NC(=O)[C@H](Cc1ccccc1)NC(=O)c1ccc(C(C)(C)C)cc1)C(=O)N[C@@H](CO)C(=O)OC`, the plasma concentration was 0 µg/mL (male Swiss albino mice, plasma; intraperitoneal, 10 mg/kg, 8 h).
With `C=C(C)[C@@H]1CCC(C)=C[C@H]1c1c(O)cc(CCC)cc1O` the plasma concentration was 4 ± 0.6 µg/mL (LC-MS/MS; Scn1a+/− mice, both sexes, plasma; intraperitoneal, 60 mg/kg, after hyperthermia protocol).
`COc1ccc2c(c1)[C@]13CCCC[C@@H]1[C@H](C2)N(C)CC3` gave a plasma concentration of 0.848 µg/mL and 2.75 µg/mL and 0.327 µg/mL and 0.707 µg/mL and 0.288 µg/mL (C57BL/6 mice, plasma; oral, 50 µg/g, 30 min).

For quick reference, copied from above:
`O=C1c2c(O)c(=O)ccn2N([C@@H]2c3ccccc3SCc3c2ccc(F)c3F)[C@@H]2COCCN12` gave a plasma concentration of 0.0252 µg/mL (BALB/c mice, plasma; oral, 50 mg/kg baloxavir marboxil, 12 h).
